Measured values of several laboratories.
Each numbered part is a random draw from the data of one study; scales do not carry over between parts.
Sequence of UniProt Q8NI60 (whole entry, looked up): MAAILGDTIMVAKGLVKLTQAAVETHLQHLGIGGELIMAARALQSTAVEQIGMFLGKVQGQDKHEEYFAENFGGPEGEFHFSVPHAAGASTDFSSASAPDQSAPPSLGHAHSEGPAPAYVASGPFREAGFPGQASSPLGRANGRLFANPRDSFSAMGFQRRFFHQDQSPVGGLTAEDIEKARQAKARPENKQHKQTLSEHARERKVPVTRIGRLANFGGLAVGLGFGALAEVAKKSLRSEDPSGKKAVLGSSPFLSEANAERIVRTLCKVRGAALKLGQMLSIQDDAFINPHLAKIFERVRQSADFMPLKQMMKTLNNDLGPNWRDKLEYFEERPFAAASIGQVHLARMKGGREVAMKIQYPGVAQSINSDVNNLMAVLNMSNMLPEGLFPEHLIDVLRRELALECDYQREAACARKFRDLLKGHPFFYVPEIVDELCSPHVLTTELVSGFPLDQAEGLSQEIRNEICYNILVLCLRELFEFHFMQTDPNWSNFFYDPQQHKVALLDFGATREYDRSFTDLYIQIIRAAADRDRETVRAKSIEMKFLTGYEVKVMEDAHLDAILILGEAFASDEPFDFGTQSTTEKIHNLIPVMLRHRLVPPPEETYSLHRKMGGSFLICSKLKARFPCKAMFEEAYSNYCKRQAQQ
Sequence of UniProt Q9NY57 (whole entry, looked up): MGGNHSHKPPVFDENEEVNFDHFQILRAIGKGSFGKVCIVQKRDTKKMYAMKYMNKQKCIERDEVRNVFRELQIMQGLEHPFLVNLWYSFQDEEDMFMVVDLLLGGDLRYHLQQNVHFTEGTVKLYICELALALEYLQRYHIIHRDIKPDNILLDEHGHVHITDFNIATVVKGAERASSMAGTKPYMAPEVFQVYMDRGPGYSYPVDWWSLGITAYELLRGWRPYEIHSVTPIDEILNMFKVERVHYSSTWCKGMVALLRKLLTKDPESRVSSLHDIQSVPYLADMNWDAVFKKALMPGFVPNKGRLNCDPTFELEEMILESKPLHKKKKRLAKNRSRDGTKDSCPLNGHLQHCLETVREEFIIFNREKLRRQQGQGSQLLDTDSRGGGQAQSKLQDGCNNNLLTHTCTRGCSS
Sequence of UniProt P45983 (whole entry, looked up): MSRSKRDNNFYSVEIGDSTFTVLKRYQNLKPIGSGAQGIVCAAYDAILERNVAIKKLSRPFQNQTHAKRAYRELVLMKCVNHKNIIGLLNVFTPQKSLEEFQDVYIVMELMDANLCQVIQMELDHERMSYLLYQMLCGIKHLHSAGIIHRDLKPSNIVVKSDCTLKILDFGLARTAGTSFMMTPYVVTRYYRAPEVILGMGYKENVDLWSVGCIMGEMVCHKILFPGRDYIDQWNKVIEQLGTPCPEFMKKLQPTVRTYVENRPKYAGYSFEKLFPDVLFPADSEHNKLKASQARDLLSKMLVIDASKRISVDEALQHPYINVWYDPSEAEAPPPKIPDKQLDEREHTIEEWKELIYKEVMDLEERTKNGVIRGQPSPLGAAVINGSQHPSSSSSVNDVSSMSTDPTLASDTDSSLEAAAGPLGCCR
Sequence of UniProt Q92772 (whole entry, looked up): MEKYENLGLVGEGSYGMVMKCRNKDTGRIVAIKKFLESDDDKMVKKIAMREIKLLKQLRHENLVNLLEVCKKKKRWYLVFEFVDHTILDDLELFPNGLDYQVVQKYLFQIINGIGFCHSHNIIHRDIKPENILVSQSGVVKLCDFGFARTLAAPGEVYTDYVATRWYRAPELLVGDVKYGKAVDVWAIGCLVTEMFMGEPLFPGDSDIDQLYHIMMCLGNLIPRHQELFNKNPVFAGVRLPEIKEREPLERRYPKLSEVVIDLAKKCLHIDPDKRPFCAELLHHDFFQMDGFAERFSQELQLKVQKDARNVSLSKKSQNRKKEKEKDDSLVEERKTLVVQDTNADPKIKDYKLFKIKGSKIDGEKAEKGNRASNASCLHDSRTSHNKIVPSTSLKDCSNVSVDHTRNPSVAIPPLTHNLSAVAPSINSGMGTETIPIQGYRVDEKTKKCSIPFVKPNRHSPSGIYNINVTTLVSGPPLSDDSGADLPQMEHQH
Sequence of UniProt O60331 (whole entry, looked up): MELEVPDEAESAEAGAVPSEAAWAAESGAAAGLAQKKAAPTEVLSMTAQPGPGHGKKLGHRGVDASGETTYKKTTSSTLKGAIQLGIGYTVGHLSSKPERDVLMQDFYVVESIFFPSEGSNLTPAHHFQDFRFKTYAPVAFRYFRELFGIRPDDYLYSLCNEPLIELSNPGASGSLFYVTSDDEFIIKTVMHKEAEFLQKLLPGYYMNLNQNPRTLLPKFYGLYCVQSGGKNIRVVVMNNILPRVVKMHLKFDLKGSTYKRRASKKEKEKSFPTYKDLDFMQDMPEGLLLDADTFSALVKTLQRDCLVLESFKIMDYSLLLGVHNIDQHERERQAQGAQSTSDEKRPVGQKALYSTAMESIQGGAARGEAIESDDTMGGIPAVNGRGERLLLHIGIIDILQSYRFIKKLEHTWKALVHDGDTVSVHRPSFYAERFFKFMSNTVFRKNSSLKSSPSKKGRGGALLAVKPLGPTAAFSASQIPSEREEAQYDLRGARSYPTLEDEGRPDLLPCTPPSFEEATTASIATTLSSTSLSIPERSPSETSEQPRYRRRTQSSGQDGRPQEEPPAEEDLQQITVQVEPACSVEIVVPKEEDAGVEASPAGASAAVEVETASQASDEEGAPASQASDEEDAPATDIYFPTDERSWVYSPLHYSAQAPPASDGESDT
Sequence of UniProt P28482 (whole entry, looked up): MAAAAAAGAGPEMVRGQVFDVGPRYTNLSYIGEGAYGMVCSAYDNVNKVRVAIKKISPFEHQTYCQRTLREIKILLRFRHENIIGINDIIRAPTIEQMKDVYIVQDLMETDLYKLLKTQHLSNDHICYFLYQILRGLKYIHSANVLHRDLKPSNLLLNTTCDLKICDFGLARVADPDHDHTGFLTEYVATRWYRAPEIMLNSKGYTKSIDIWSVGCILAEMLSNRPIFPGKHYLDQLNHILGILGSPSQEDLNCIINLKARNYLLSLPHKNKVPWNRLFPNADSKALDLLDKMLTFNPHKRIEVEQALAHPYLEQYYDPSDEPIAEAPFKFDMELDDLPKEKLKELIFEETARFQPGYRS
Sequence of UniProt P42685 (whole entry, looked up): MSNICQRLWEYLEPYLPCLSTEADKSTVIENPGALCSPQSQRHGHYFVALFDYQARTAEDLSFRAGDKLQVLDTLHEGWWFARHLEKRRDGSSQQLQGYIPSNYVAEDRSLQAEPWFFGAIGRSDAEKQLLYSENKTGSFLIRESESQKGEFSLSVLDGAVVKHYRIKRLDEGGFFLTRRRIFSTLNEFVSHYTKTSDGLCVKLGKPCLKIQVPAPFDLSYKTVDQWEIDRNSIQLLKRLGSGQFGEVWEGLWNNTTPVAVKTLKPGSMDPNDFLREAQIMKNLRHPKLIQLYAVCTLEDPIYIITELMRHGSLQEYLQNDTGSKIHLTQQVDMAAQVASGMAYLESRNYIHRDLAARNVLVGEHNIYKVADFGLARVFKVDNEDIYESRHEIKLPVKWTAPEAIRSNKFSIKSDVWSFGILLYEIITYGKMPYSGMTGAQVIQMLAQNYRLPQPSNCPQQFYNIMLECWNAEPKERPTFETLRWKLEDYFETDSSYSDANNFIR

Set 1 — observed: cell-free assay; method: competition with immobilised ligand; concentration: 1 µM
SMILES: CN(C)CC#Cc1ccc(OCCCc2sc(N3CCc4cccc(C(=O)Nc5nc6ccccc6s5)c4C3)nc2C(=O)O)c(F)c1
For Mitogen-activated protein kinase 8 (MAPK8, Homo sapiens, UniProt P45983): remaining binding read 62%.
For Insulin receptor (INSR, Homo sapiens, UniProt P06213): remaining binding read 92%.
Serine/threonine-protein kinase 32B (STK32B, Homo sapiens, UniProt Q9NY57) — remaining binding: 95%.
Phosphatidylinositol 4-phosphate 5-kinase type-1 gamma (PIP5K1C, Homo sapiens, UniProt O60331) — remaining binding: 100%.
For Tyrosine-protein kinase ZAP-70 (ZAP70, Homo sapiens, UniProt P43403): remaining binding read 100%.
It gave 100% for remaining binding (Atypical kinase COQ8A, mitochondrial (COQ8A, Homo sapiens, UniProt Q8NI60)).
The remaining binding was 99% (Tyrosine-protein kinase ABL1, phosphorylated (ABL1, Homo sapiens, UniProt P00519, H396P)).
The remaining binding was 100% (Protein kinase C iota type (PRKCI, Homo sapiens, UniProt P41743)).
The remaining binding was 100% (Mitogen-activated protein kinase 1 (MAPK1, Homo sapiens, UniProt P28482)).
The remaining binding was 98% (Cyclin-dependent kinase-like 2 (CDKL2, Homo sapiens, UniProt Q92772)).
Mitogen-activated protein kinase kinase kinase 12 (MAP3K12, Homo sapiens, UniProt Q12852) — remaining binding: 100%.
The remaining binding was 96% (Tyrosine-protein kinase FRK (FRK, Homo sapiens, UniProt P42685)).
The remaining binding was 100% (Receptor-type tyrosine-protein kinase FLT3 (FLT3, Homo sapiens, UniProt P36888, F691L/ITD)).

Set 2 — action: antagonist
Target: Beta-1 adrenergic receptor (ADRB1, Homo sapiens, UniProt P08588)
Sequence of UniProt P08588 (whole entry, looked up): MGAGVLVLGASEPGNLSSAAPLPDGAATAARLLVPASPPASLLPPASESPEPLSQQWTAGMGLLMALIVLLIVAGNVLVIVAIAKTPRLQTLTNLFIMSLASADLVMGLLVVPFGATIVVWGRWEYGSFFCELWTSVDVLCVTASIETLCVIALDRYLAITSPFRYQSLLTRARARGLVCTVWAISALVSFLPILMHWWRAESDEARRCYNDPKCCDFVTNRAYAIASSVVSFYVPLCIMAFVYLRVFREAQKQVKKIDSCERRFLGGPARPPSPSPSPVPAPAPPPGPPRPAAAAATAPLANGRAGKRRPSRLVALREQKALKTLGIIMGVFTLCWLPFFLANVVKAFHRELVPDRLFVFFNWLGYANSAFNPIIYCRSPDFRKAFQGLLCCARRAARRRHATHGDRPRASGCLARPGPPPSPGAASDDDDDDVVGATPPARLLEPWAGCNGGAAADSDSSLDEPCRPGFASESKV
The IC50 of `COc1cc(/C=C/C(=O)c2c(O)ccc3c(C)cc(=O)oc23)ccc1O` is reported as no less than 100 µM.
`Cc1cc2oc(=O)cc(COn3nnc4ccc(Cl)cc43)c2cc1Cl` has an IC50 of no less than 100 µM.
With `Clc1ccccc1C(c1ccccc1)N1CCNCC1` (stereo not drawn) the IC50 was no less than 100 µM.
For `COc1ccc(C(=O)NC[C@H]2O[C@@H](CC(=O)N3CCN(c4ccccc4OC)CC3)[C@H](O)[C@@H]2O)cc1`, the IC50 was no less than 100 µM.

Set 3 — target: panel of 300 human kinases; concentration: 0.5 µM; direction: higher = more selective
`O=C(Nc1ccc(Cl)cc1)c1ccccc1NCc1ccncc1` gave a Gini score of 0.6.
For `CCC(=O)Nc1ccc2ncnc(Nc3cccc(Br)c3)c2c1`, the Gini score was 0.6.
With `CCOc1cc2ncnc(Nc3cccc(Br)c3)c2cc1OCC` the Gini score was 0.68.
`CN(C)CCCn1cc(C2=C(c3c[nH]c4ccccc34)C(=O)NC2=O)c2ccccc21` has a Gini score of 0.6.

Set 4 — cell line: HaCaT; concentration: 100 µM; time: 18 h
The viability of `Cc1cn([C@@H]2C[C@@H](O)[C@H](CO)O2)c(=O)[nH]c1=O` is reported as 114%.
The viability of `C#C[C@]1(O)CC[C@H]2[C@@H]3CCc4cc(OC5CCCC5)ccc4[C@H]3CC[C@@]21C` is reported as 15.8%.
With `C[N+]1(C)[C@@H]2C[C@@H](OC(=O)C(O)(c3cccs3)c3cccs3)C[C@H]1[C@@H]1O[C@@H]12` the viability was 107%.
`C=C1CC[C@@H]2[C@](C)(CO)[C@H](O)CC[C@@]2(C)[C@@H]1C/C=C1/C(=O)OC[C@H]1O` gave a viability of 78.8%.

Set 5 — organism: Sarcocystis neurona; observed: parasite growth; concentration: 10 µM; setting: first screen; baseline: untreated
Under “log2 fold change”, `Cl.Nc1nc2ccc(OC(F)(F)F)cc2s1` is recorded as 1.46.
`CN1CCN(c2c(F)cc3c(=O)c(C(=O)O)cn4c3c2SCC4)CC1.Cl` — result for “log2 fold change”: 0.28.
`Cc1nccn1CC1CCc2c(c3ccccc3n2C)C1=O.Cl` (stereo not drawn) — result for “log2 fold change”: 0.0949.
For `Nc1ncnc2c1ncn2[C@@H]1O[C@H](CO)C[C@H]1O`, “log2 fold change” read 0.25.
`COC(=O)C1=C(C)NC(C)=C(C(=O)O[C@@H]2CCCN(Cc3ccccc3)C2)[C@@H]1c1cccc([N+](=O)[O-])c1.Cl` (racemic): “log2 fold change” -0.26.

A few entries again (set 2):
The IC50 of `COc1cc(/C=C/C(=O)c2c(O)ccc3c(C)cc(=O)oc23)ccc1O` is reported as no less than 100 µM.
`Cc1cc2oc(=O)cc(COn3nnc4ccc(Cl)cc43)c2cc1Cl` has an IC50 of no less than 100 µM.
With `Clc1ccccc1C(c1ccccc1)N1CCNCC1` (stereo not drawn) the IC50 was no less than 100 µM.
For `COc1ccc(C(=O)NC[C@H]2O[C@@H](CC(=O)N3CCN(c4ccccc4OC)CC3)[C@H](O)[C@@H]2O)cc1`, the IC50 was no less than 100 µM.
